Published values from different studies.
Each numbered part is a random draw from the data of one study; scales do not carry over between parts.
UniProt Q2M2I8, sequence (whole entry, looked up): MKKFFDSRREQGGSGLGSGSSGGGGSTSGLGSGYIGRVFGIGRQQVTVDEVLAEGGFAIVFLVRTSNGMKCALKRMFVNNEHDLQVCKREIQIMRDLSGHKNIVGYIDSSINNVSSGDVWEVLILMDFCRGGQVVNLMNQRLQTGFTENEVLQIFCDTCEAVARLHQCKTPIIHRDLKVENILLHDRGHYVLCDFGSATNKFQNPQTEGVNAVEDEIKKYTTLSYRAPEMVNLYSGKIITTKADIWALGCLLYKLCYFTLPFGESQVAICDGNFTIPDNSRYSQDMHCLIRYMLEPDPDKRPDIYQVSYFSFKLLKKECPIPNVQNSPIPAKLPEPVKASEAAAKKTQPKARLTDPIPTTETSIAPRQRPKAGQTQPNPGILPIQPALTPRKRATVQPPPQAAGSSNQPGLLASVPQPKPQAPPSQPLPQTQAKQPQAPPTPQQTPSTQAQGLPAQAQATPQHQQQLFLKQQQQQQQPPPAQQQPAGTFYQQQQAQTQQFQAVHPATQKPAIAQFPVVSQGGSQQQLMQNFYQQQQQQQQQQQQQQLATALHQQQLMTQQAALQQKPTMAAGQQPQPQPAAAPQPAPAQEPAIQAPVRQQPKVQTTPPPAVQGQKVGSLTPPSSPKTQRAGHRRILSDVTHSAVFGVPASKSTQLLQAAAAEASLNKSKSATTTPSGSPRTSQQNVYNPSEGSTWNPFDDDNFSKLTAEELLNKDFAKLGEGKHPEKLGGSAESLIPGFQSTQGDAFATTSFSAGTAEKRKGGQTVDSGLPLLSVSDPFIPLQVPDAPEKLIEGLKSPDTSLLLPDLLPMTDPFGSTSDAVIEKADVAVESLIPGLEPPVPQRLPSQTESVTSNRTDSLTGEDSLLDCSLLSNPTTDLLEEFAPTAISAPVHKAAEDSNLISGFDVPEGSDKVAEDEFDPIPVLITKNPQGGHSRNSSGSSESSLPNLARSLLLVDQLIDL

Sample 1
Organism: Sarcocystis neurona
Read-out: parasite growth
Concentration: 10 µM
Time: 96 h
Notes: first screen
SMILES | inhibition
COCCCC/C(=N\OCCN)c1ccc(C(F)(F)F)cc1 | 16.3%
COc1ccc(OC)c(C(O)CNC(=O)CN)c1 (centres unmarked) | -18.5%
COC(=O)CCc1ccc(OCC(O)CNC(C)C)cc1 (centres unmarked) | 4.2%
C=CC1=C(C(=O)O)N2C(=O)[C@@H](NC(=O)/C(=N\OCC(=O)O)c3csc(N)n3)[C@H]2SC1 | -14.6%
C#C[C@]1(O)CC[C@H]2[C@@H]3[C@H](C)CC4=C(CCC(=O)C4)[C@H]3CC[C@@]21C | 9.3%

Sample 2
Host: mouse
Matrix: microsomes or S9
Concentration: 2 µM
Time: 0.5 h
Compound | remaining compound
CC1CCN(Cc2nc(N)nc(Nc3ccc(Cl)cc3)n2)CC1 | 34.2%
CCOC(=O)c1cccc(NC(=O)N2Cc3c(sc4c3CCCC4)-n3cccc3C2c2cccc(Cl)c2)c1 (centres unmarked) | 37%
CC1CCN(c2ccc(-c3noc(C(=O)NCCc4nc5ccccc5[nH]4)n3)cc2)CC1 | 57.3%
CC(C)(C)C(=O)Nc1cc(NC(=O)C(C)(C)C)cc(C(=O)Nc2c[nH]c(=O)[nH]c2=O)c1 | 0.193%
O=C(NCc1ccccc1)c1ccc(CN(c2ccccc2)S(=O)(=O)c2ccccc2)cc1 | 26.6%

Sample 3
SMILES: O=C1CCC(N2Cc3cc(C4CCN(Cc5ccccc5)CC4)ccc3C2=O)C(=O)N1 (centres unmarked)
Matrix: plasma
test system | conditions | concentration
male CD-1 mouse | oral, 3 mg/kg, 15 min | 236 ng/mL
male Sprague-Dawley rat | intravenous, 1 mg/kg, 2 h | 41.8 ng/mL
male CD-1 mouse | oral, 3 mg/kg, 30 min | 273 ng/mL

Other studies, line by line
Compound | target | test | conditions | how to read | quantity | value
CNC(=O)Nc1ccc2c(c1)CC[C@]21OC(=O)N(CC(=O)N(Cc2ccc(F)cc2)[C@@H](C)C(F)(F)F)C1=O | AP2-associated protein kinase 1 (AAK1, Homo sapiens, UniProt Q2M2I8) | KINOMEscan | 1 µM | reference: control | remaining binding | 100%
